Published values gathered from unrelated publications.
Protocols differ between the studies behind these lines. ± gives the spread as reported.

| Molecule | target or system | test | system | conditions | quantity | result |
| --- | --- | --- | --- | --- | --- | --- |
| Cn1cnc(Cn2c(=O)[nH]/c(=N\c3cc4cn(C)nc4cc3Cl)n(Cc3cc(F)c(F)cc3F)c2=O)n1 |  |  | human, normal renal function | oral, 375 mg | anaemia TEAE, Severe severity | 0% |
| LKPFERDISTEIYQA | human CD4 T cells | AIM | peptide |  | responding donors | 17% |
| Nc1ncnc2c([C@@H]3N[C@H](CO)[C@@H](O)[C@H]3O)c[nH]c12 | Chikungunya virus | viral replication | HeLa, AF 15561 | 6.3 µM | inhibition | 12.9% |
| O=C(O)CCC(=O)C(=O)O | Replicase polyprotein 1ab, main protease (rep, Severe acute respiratory syndrome coronavirus 2, UniProt P0DTD1) | reporter gene (Gaussia luciferase), inhibitor |  | 20 µM | inhibition | 1.4% |
| EKSNIIRGWIFGTTL | human CD4 T cells | AIM | peptide |  | responding donors | 9% |
| CC[C@H](C)[C@H](NC(=O)[C@H](CC(C)C)NC(=O)[C@H](Cc1c[nH]c2ccccc12)NC(=O)[C@H](CCC(N)=O)NC(=O)[C@@H](NC(=O)[C@H](Cc1ccccc1)NC(=O)[C@H](C)NC(=O)[C@H](CCCCNC(=O)COCCOCCNC(=O)COCCOCCNC(=O)CC[C@H](NC(=O)CCCCCCCCCCCCCCCCCCC(=O)O)C(=O)O)NC(=O)[C@H](CCC(N)=O)NC(=O)[C@H](C)NC(=O)[C@@H](NC(=O)[C@H](CCCCN)NC(=O)[C@H](CC(=O)O)NC(=O)[C@H](CC(C)C)NC(=O)C(C)(C)NC(=O)[C@@H](NC(=O)[C@H](CO)NC(=O)[C@H](Cc1ccc(O)cc1)NC(=O)[C@H](CC(=O)O)NC(=O)[C@H](CO)NC(=O)[C@@H](NC(=O)[C@H](Cc1ccccc1)NC(=O)[C@@H](NC(=O)CNC(=O)[C@H](CCC(=O)O)NC(=O)C(C)(C)NC(=O)[C@@H](N)Cc1ccc(O)cc1)[C@@H](C)O)[C@@H](C)O)[C@@H](C)CC)[C@@H](C)CC)C(C)C)C(=O)N[C@@H](C)C(=O)NCC(=O)NCC(=O)N1CCC[C@H]1C(=O)N[C@@H](CO)C(=O)N[C@@H](CO)C(=O)NCC(=O)N[C@@H](C)C(=O)N1CCC[C@H]1C(=O)N1CCC[C@H]1C(=O)N1CCC[C@H]1C(=O)N[C@@H](CO)C(N)=O |  |  | healthy subjects, single ascending dose | 5.0 mg, baseline | serum lipase | 26.7 ± 9.3 U/L |

Some of these lines once more:
| Molecule | target or system | test | system | conditions | quantity | result |
| --- | --- | --- | --- | --- | --- | --- |
| LKPFERDISTEIYQA | human CD4 T cells | AIM | peptide |  | responding donors | 17% |
